# Results pooled from the literature.
# Numbered parts are unrelated; each lists some results of a single study.

# Series 1
# Target: Histone acetyltransferase KAT6A, both winged helices, GST fusion (KAT6A, Homo sapiens, UniProt Q92794, residues 1-181)
# Method: protein binding microarray
# Molecule type: double-stranded DNA, one strand shown
# Sample: in vitro
# Concentration: not given
# Notes: 8-mer, flanks averaged, mean of 2 arrays, mostly near background
# Reference: not given
# Direction: higher = stronger binding
# Residues (chain): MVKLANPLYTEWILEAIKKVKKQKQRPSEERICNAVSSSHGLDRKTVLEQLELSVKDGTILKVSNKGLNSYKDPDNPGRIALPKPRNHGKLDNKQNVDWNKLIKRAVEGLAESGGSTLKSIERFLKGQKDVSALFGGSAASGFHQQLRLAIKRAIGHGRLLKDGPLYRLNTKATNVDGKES
Sequence,E-score
CACAAGCG,0.126
TCAAATCA,-0.0885
TCAACACA,-0.213
CACTTAGG,-0.189
CTAACGAG,-0.202

# Series 2
# Target: Prothrombin, mature alpha-thrombin (F2, Homo sapiens, UniProt P00734)
# Method: aptamer microarray, sandwich
# Molecule type: DNA with 2'F-ANA
# Sample: in vitro
# Concentration: 200 nM
# Notes: whole 15-mer aptamer, many near background
# With: Cy3 exosite-II aptamer, 400 nM
# Direction: higher = stronger binding
# Sequence: GGTTGGTGTGGTTGG
Modification,mean fluorescence intensity
2'F-ANA at 1 2 4 6 7 10 11 13 15,50.4 a.u.
2'F-ANA at 1 2 3 4 6 8 9 10 11 14 15,52.7 a.u.
2'F-ANA at 3 5 9 11 12 13,157 a.u.
2'F-ANA at 2 3 4 6 7 8 14 15,452 a.u.
2'F-ANA at 2 3 5 7 8 9 14 15,59.6 a.u.

# Series 3
# Target: Interferon regulatory factor 5, full length, phosphomimetic (IRF5, Homo sapiens, UniProt Q13568-2, residues 1-514, K96S/S451D/S453D/S456D/S462D)
# Method: protein-binding microarray
# Molecule type: double-stranded DNA, one strand shown
# Sample: in vitro
# Concentration: 250 nM
# Notes: 60-bp whole probe
# With: salmon DNA 0.4 mg/ml
# Reference: random background probes
# Direction: higher = stronger binding
Sequence,log fluorescence [z-score]
GCCTAGCACGACGGTTTCCTACTGCTAACGTGCTAGGTCTTGATTCGCTTGACGCTGCTG,0.243
GCCTAGCACTTAGGTTTCGGTTTCGGCTAGTGCTAGGTCTTGATTCGCTTGACGCTGCTG,11.3
GCCTAGCACTCATAATTCTGATTGGAACTGTGCTAGGTCTTGATTCGCTTGACGCTGCTG,0.315

# Mixed results
Molecule,target,assay,test system,setting,scale,measurement,result
"PhoQ, residues 284 288 289 292 302 303 ASVMEA","PhoP, residues 12 14 15 18 19 SQCLL (Escherichia coli, UniProt P23836)","Sort-seq, refers to: YFP reporter",E. coli,"PhoQ-PhoP variant library, with: 10 µM Mg2+","reference: high Mg2+ state, higher = stronger signaling",fold induction,14.6

# For quick reference, copied from above (series 2):
Modification,mean fluorescence intensity
2'F-ANA at 2 3 4 6 7 8 14 15,452 a.u.
2'F-ANA at 2 3 5 7 8 9 14 15,59.6 a.u.
